Measurements pooled from the literature.
Compare with care: the assays were run in different laboratories.
Target: Serine/threonine-protein kinase TNNI3K (TNNI3K, Homo sapiens, UniProt Q59H18)

| Compound | test | system | setting | how to read | measurement | value |
| --- | --- | --- | --- | --- | --- | --- |
| Nc1ncc2c(n1)-c1c([nH]c3ccc(C4=CCOCC4)cc13)CCC2 | binding, competition with immobilised ligand | – | 1 µM | – | remaining binding | 99% |
| C=CC(=O)N1CCc2ccc(-n3c(=O)ccc4cnc5ccc(-c6cnn(C)c6)cc5c43)cc21 | KINOMEscan | – | 1 µM | relative to: DMSO control | remaining binding | 84% |
| CNC1C[S+]2CC[S+]3CC[S+](C1)[Ru-4]321([N]=C=S)[n]2c3ccc(OC)cc3c3c4c(c5cc(F)c[n+]1c5c32)C(=O)NC4=O (stereo not drawn) | KinomeScan | – | 0.1 µM | relative to: untreated | remaining binding | 100% |
| Cc1ccc(C(=O)Nc2ccc(CN3CCN(C)CC3)c(C(F)(F)F)c2)cc1C#Cc1cnc2cccnn12 | target engagement, NanoBRET | human cells | – | – | Hill slope | 1.29 |
| CCN1CCN(Cc2ccc(NC(=O)c3ccc(C)c(NC(=O)c4cncc(-c5cccs5)c4)c3)cc2C(F)(F)F)CC1 | binding, competition with immobilised ligand | – | 1 µM | – | remaining binding | 3.1% |
| Cc1ccc(-c2c(/C=C(\C#N)C(=O)NC(C)C)n(CCCO)c3ncnc(N)c23)cc1 | cell-free assay, competition with immobilised ligand | – | 1 µM | – | remaining binding | 81% |
| CCN1CCN(Cc2ccc(C(=O)Nc3ccc(C)c(NCc4cnc5[nH]ccc5c4OC)c3)cc2C(F)(F)F)CC1 | binding, competition with immobilised ligand | – | 1 µM | – | remaining binding | 7% |
| CNC(=O)C1CCN(c2cc(C)c(F)cc2NC(=O)c2ccc(-c3cc(O)ccc3C)c(C)c2)CC1 | binding, competition with immobilised ligand | – | 1 µM | – | remaining binding | 50% |
| COc1cc(Nc2nccc(-c3cnn4nc(OC)ccc34)n2)cc(C(F)(F)F)c1 | binding, competition with immobilised ligand | – | 1 µM | – | remaining binding | 93% |
| Cc1cnc2nc1Nc1cccc(c1)COC/C=C/COCc1cc(ccc1OCCN1CCOCC1)N2 | binding, competition with immobilised ligand | – | 0.1 µM | – | remaining binding | 100% |
| CC(C)=CC1OC(C)(C)C2C=C3C(=O)C(Cl)=CC(O)C3C3C(O)C4OC4C(=O)C132 (stereo not drawn) | cell-free assay, competition with immobilised ligand | – | 10 µM | – | remaining binding | 100% |
| C=CC(=O)N1CCCC(n2c(=O)c3ncccc3n(Cc3ccc(Oc4ccccc4)cc3)c2=O)C1 (stereo not drawn) | cell-free assay, competition with immobilised ligand | – | 1 µM | – | remaining binding | 100% |
| COc1c(Cl)cccc1Nc1c(-c2ccncc2C#C[C@@]2(C)CCCN2C(=O)/C=C/CN(C)C)[nH]c2c1C(=O)NCC2 | binding, competition with immobilised ligand | – | 3 µM | – | remaining binding | 92% |
| CCN1CCN(Cc2ccc(NC(=O)c3ccc(C)c(NC(=O)c4cncc(-c5cnn(C)c5)c4)c3)cc2C(F)(F)F)CC1 | binding, competition with immobilised ligand | – | 1 µM | – | remaining binding | 25% |
| COc1cc(Nc2nc(C)cc(-c3cnn4nc(OC)ccc34)n2)cc(C(F)(F)F)c1 | binding, competition with immobilised ligand | – | 1 µM | – | remaining binding | 100% |

For quick reference, copied from above:
| Compound | test | system | setting | how to read | measurement | value |
| --- | --- | --- | --- | --- | --- | --- |
| C=CC(=O)N1CCCC(n2c(=O)c3ncccc3n(Cc3ccc(Oc4ccccc4)cc3)c2=O)C1 (stereo not drawn) | cell-free assay, competition with immobilised ligand | – | 1 µM | – | remaining binding | 100% |
| Cc1cnc2nc1Nc1cccc(c1)COC/C=C/COCc1cc(ccc1OCCN1CCOCC1)N2 | binding, competition with immobilised ligand | – | 0.1 µM | – | remaining binding | 100% |
